Assay results of several laboratories.
Values joined by “and” are separate records of one study, mostly repeats; a detail may differ. ± marks the error that the study gave.

CO[C@H]1C[C@@H]2CC[C@@H](C)[C@@](O)(O2)C(=O)C(=O)N2CCCC[C@H]2C(=O)O[C@H]([C@H](C)C[C@@H]2CC[C@@H](OC(=O)NCCOCCOCCOCCOCCOCCOCCOCCOCCC(=O)N3CCc4cc(Cn5nc(-c6ccc7oc(N)nc7c6)c6c(N)ncnc65)ccc4C3)[C@H](OC)C2)C[C@@H](O)[C@H](C)/C=C(\C)[C@@H](O)[C@@H](OC)C(=O)[C@H](C)C[C@H](C)/C=C/C=C/C=C/1C — incidence of Anemia TEAE (patients with advanced solid tumours; intravenous, dose not given, grade ≥3): 15.8%
CC[C@H](C)CCCCC(=O)N[C@@H](CCN)C(=O)N[C@H](C(=O)N[C@@H](CCN)C(=O)N[C@H]1CCNC(=O)[C@H]([C@@H](C)O)NC(=O)[C@H](CCN)NC(=O)[C@H](CCN)NC(=O)[C@H](CC(C)C)NC(=O)[C@@H](Cc2ccccc2)NC(=O)[C@H](CCN)NC1=O)[C@@H](C)O — Cmax steady state (critically ill non-survivors, plasma; intravenous, 2.2 mg/kg/day, median): 6000 ng/mL
[O-][S+]1CCc2nc(N3CCC(c4ncc(Cl)cn4)CC3)nc(NC3(CO)CCC3)c21 (centres unmarked) — serum alanine aminotransferase (healthy male humans; 36 mg single dose, after last dose): 16.1 U/L
CCN1[C@@H](C(=O)NC23CCC(C(=O)O)(CC2)CC3)[C@H](c2cccc(Cl)c2F)[C@]2(C(=O)Nc3cc(Cl)ccc32)C12CCCCC2 — anorexia incidence (patients with advanced solid tumours; oral, 200 mg): 50%
Cc1cc(C)nc(Nc2ncc(C(=O)NCCc3c(C)[nH]c4ccccc34)cn2)c1 — maximal hepatic bioavailability (rat liver microsomes; 1 µM): 17%
CN1CCN(S(=O)(=O)c2cc([N+](=O)[O-])ccc2N(CCOS(C)(=O)=O)CCOS(C)(=O)=O)CC1 — hemoglobin (NOD/SCID mouse, naive, blood; intraperitoneal, 18.8 mg/kg, week 4): 166 g/L and 148 g/L and 170 g/L and 172 g/L
C[C@@H](NC(=O)N1C(=O)[C@H](Cc2ccnc(N)c2)[C@H]1C(=O)O)C1CCCCC1 — urine leukocyte-positive (healthy Chinese adults; continuous intravenous infusion, 0.3 mg/kg/h, 5.0 days): 0%
CC(=O)c1c(C)c2cnc(Nc3ccc(C4CCN(CCS(C)(=O)=O)CC4)cn3)nc2n(C2CCCC2)c1=O — Cmax (human patients, plasma; oral, 75 mg twice daily, day 1 single dose, added: fulvestrant): 188 ng/mL
COc1cc(N2CCC(N3CCN(C)CC3)CC2)ccc1Nc1ncnc(Nc2ccccc2S(=O)(=O)C(C)C)n1 — treatment-emergent adverse events (measured: Nausea; Japanese patients with solid tumours; oral, dose not given, all grades): 8 number (percent)
C[C@@H]1NC(=O)[C@H](CCCCNC(=O)CO/N=C/C(=O)NCCCC[C@@H]2NC(=O)[C@@H](Cc3ccccc3)NC(=O)[C@H](CC(=O)O)NC(=O)CNC(=O)[C@H](CCCNC(=N)N)NC2=O)NC(=O)CNC(=O)[C@@H]2CCCN2C(=O)[C@H](CCCCNC(=O)CO/N=C/C(=O)NCCCC[C@@H]2NC(=O)[C@@H](Cc3ccccc3)NC(=O)[C@H](CC(=O)O)NC(=O)CNC(=O)[C@H](CCCNC(=N)N)NC2=O)NC(=O)[C@H](CCCCNC(=O)[C@H](CCCCN)NC(=O)[C@H](Cc2ccccc2)NC(=O)CNC(=O)CN2CCCNCCNCCCNCC2)NC(=O)[C@H](CCCCNC(=O)CO/N=C/C(=O)NCCCC[C@@H]2NC(=O)[C@@H](Cc3ccccc3)NC(=O)[C@H](CC(=O)O)NC(=O)CNC(=O)[C@H](CCCNC(=N)N)NC2=O)NC(=O)CNC(=O)[C@@H]2CCCN2C(=O)[C@H](CCCCNC(=O)CO/N=C/C(=O)NCCCC[C@@H]2NC(=O)[C@@H](Cc3ccccc3)NC(=O)[C@H](CC(=O)O)NC(=O)CNC(=O)[C@H](CCCNC(=N)N)NC2=O)NC1=O [copper-64 labelled] — intact fraction (RP-HPLC; mouse serum; 24 h, 37 °C): 91.8%
COc1ncnn2ccc(-c3cnc4nc(C)n(Cc5nnc([C@@H](C)F)o5)c4c3)c12 — incidence of grade 1 vomiting (human patients; oral, dose not given): 7.1%
C=CCNc1c(O)cc2c(O)c1C[C@@H](C)C[C@H](OC)[C@H](O)[C@@H](C)/C=C(\C)[C@H](OC(N)=O)[C@@H](OC)/C=C\C=C(/C)C(=O)N2 — patients with ALP increase (unresectable or metastatic sarcoma; intravenous, 90 mg/m^2, grade 3-4 lab change): 17%
CC(C)c1ccc(N=Nc2ccc3[nH]cc(CCN(C)C)c3c2)cc1 — cis isomer at photostationary state (light irradiation; solution; added: light 385 nm): 80%
O=C(Nc1ccccc1)C1CCN(C(=O)Oc2cccnc2)CC1 — subjects with cold sweat (adverse event reporting; healthy women; oral, 20 mg, 7 days): 0%
Cn1c(-c2ccc(C(N)=O)cc2F)nnc1C(C)(C)Oc1c(F)cc(Cl)cc1F — vessel puncture site pain (human; oral, 6 mg, single ascending dose): 0%
O=S(=O)(Nc1ccccc1)c1ccc(NC(=S)Nc2ccccc2)cc1 — mean corpuscular haemoglobin concentration (mouse, female, blood; oral, 20 mg/kg daily, 14 days): 32.1 g/dL
C1=Cc2nc1cc1ccc([n-]1)c(-c1ccccc1)c1nc(cc3ccc([n-]3)c2-c2ccccc2)C=C1.CC(=O)[O-].[Mn+3] — mean plasma concentration (LC-MS/MS; Sprague-Dawley rat, plasma; oral gavage, dose not given, 240 min): 110 ng/mL
CC(C)CC(=O)OC[C@H]1O[C@@](C#N)(c2ccc3c(N)ncnn23)[C@H](O)[C@@H]1O — fraction bound (rat plasma; 0.9 to 90 µM): 0.911
O=C(O)CCCOc1ccc(F)cc1-c1cc(-c2ccccc2C(F)(F)F)n(-c2ccccc2)n1 — serum protein fraction (measured: α2-glb; Crl:CD(SD) rats, female, serum; iv, 25 µg/kg, 14 days): 8.4 ± 0.8%
CC1(C)[C@H](C(=O)O[C@H](C#N)c2cccc(Oc3ccccc3)c2)[C@@H]1C=C(Br)Br — enzyme contribution to clearance (measured: CYP3A4; human, age 1 year, recombinant human CYP3A4; 0.1 µM): 0.62%
COc1cccc(Oc2ccccc2NC(=O)CNC(=O)c2cccc3ccccc23)c1 — serum globulin (esterase-deficient SCID mice, male; oral, 40 mg/kg/day, 14 days, toxicity study): 2.4 g/dL and 2.3 g/dL
C[C@]1(CO)Cc2ncn(-c3ccc(C#N)c(Cl)c3)c2C(=O)O1 — half-life (healthy Japanese adults, plasma; 20 mg single dose): 5.9 h
CCNCCCNC/C=C\CNCCCNCC — serious TEAE, intestinal obstruction (human, advanced solid tumours; intravenous, dose not given; reference: patients): 6.5%
N[C@@H]1c2ccccc2OC12CCN(c1cnc3c(N4CCCc5ncccc54)n[nH]c3n1)CC2 — TEAE leading to interruption (advanced metastatic solid tumour patients; oral, 20 mg once daily): 33.3%
COc1cc2c(Oc3ccc4[nH]c(C)cc4c3F)ccnc2cc1OCC1(N)CC1 — Anorexia incidence (paediatric recurrent refractory sarcoma; 12 mg): 18.2%
O=c1cc(-c2ccc(O)c(O)c2)oc2cc(O)cc(O)c12 — urinary excreted amount, total (male Sprague-Dawley rat, obese; oral, 100 mg/kg of neohesperidin, 0 to 12 h, after β-glucuronidase/sulfatase hydrolysis): 186 ± 28.5 ng
Nc1nc2cc(-c3ccc4ncc(C(=O)N5CCOCC5)n4c3)ccc2o1 — grade ≥3 hyperglycaemia (advanced solid tumour patients; dose not given, drug-related, all schedules; reference: patients): 7%
CC(C)C[C@H](NC(=O)[C@H](CCCCN)NC(=O)OCC1c2ccccc2-c2ccccc21)C(=O)N[C@H](C(=O)N[C@@H](Cc1ccccc1)C(=O)N[C@@H](Cc1ccccc1)C(=O)N[C@@H](CCCCN)C(=O)NCC(=O)N[C@@H](Cc1ccccc1)C(=O)N[C@@H](C)C(=O)N[C@@H](Cc1c[nH]c2ccccc12)C(=O)N[C@@H](CC(N)=O)C(=O)N[C@H](C(=O)N[C@H]1CSSC[C@@H](C(=O)N[C@@H](Cc2c[nH]cn2)C(=O)N[C@@H](CCCNC(=N)N)C(=O)N[C@@H](CCCNC(=N)N)C(=O)N[C@@H](C)C(=O)N[C@@H](CC(N)=O)C(N)=O)NC(=O)[C@H](C(C)C)NC(=O)[C@H](CCCNC(=N)N)NC(=O)[C@H](C(C)C)NC(=O)CNC(=O)[C@H](CC(N)=O)NC(=O)[C@H](CCCNC(=N)N)NC(=O)[C@H](Cc2ccc(O)cc2)NC(=O)[C@H](C(C)C)NC1=O)C(C)C)C(C)C — secondary structure content (circular dichroism, measured: Parallel; PBS; 80 µM, pH 7.4, added: LTA 1 µM): 3.4%
CCc1ccc(CC/C=C/c2ccc3c(c2)C(=O)CC3)cc1 — total protein (Sprague-Dawley rat, male, serum; oral, 450 mg/kg/day, 14 days): 51.5 g/L
Nc1ncnc2c1ncn2[C@@H]1O[C@@H]2COP(=O)([S-])O[C@@H]3[C@H](O)[C@@H](COP([O-])(=S)O[C@H]2[C@H]1O)O[C@H]3n1cnc2c(N)ncnc21.[Na+].[Na+] (some centres unmarked) — lymphocyte percentage (non-tumor-bearing mice, blood; intravenous, 1 mg/kg, toxicity study): 73 ± 1.96%
COc1ccc(-c2c(-c3ccc(C#N)c(F)c3)nc(N3CCC(N)CC3)n(C)c2=O)cc1F — treatment-related adverse event incidence (measured: Leukopenia; relapsed/refractory marginal zone lymphoma patients; oral, 60 mg, any grade, dose expansion): 0%
CN1CC[C@@H](c2c(O)cc(O)c3c(=O)cc(-c4ccc(C(F)(F)F)cc4Cl)oc23)[C@@H]1CO — patients with adverse event (measured: Nausea; B-cell malignancies or AML; oral, 50 mg, continuous dosing): 25%
Oc1ccc(CSCc2ccc(O)cc2)cc1 — body weight (ICR mice male; oral, 6000 mg/kg, day 1 before dosing, acute toxicity): 29.9 ± 0.93 g
CC[C@H](C)[C@H](NC(=O)[C@H](Cc1ccccc1)NC(=O)[C@H](CCC(=O)O)NC(=O)[C@H](CCCNC(=N)N)NC(=O)[C@H](C)NC(=O)[C@H](C)NC(=O)[C@H](CCC(N)=O)NC(=O)[C@H](CCC(=O)O)NC(=O)[C@H](CCC(=O)O)NC(=O)[C@H](CC(C)C)NC(=O)[C@H](Cc1ccc(O)cc1)NC(=O)[C@H](CO)NC(=O)[C@H](CO)NC(=O)[C@@H](NC(=O)[C@H](CC(=O)O)NC(=O)[C@H](CO)NC(=O)[C@@H](NC(=O)[C@H](Cc1ccccc1)NC(=O)[C@@H](NC(=O)CNC(=O)[C@H](CCC(=O)O)NC(=O)[C@H](C)NC(=O)CCc1cnc[nH]1)[C@@H](C)O)[C@@H](C)O)C(C)C)C(=O)N[C@@H](C)C(=O)N[C@@H](Cc1c[nH]c2ccccc12)C(=O)N[C@@H](CC(C)C)C(=O)N[C@H](C(=O)N[C@@H](CCCNC(=N)N)C(=O)NCC(=O)N[C@@H](CCCNC(=N)N)C(=O)N[C@@H](CCCCNC(=O)COCCOCCNC(=O)COCCOCCNC(=O)CC[C@H](NC(=O)CCCCCCCCCCCCCCCCC(=O)O)C(=O)O)C(=O)NCC(=O)NCC(=O)N[C@@H](CO)C(=O)N[C@@H](CCCCNC(=O)[C@H](CCCCNc1c(NCCCCCN(O)C(=O)CCC(=O)NCCCCCN(O)C(=O)CCC(=O)NCCCCCN(O)C(C)=O)c(=O)c1=O)Nc1c(NCCCCCN(O)C(=O)CCC(=O)NCCCCCN(O)C(=O)CCC(=O)NCCCCCN(O)C(C)=O)c(=O)c1=O)C(=O)O)C(C)C [zirconium-89 labelled] — tissue uptake (ex vivo gamma counting; Sprague-Dawley rat, male, muscle; intravenous, 1 nmol, 24 h): 0.067 %ID/g and 0.071 %ID/g and 0.068 %ID/g and 0.083 %ID/g and 0.081 %ID/g
Cn1ncc(-c2nc(N[C@H]3CC[C@H](N)CC3)ncc2Cl)c1CC1CC1 — half-life (HPLC-MS/MS; patients, plasma; oral, 1 mg, day 5): 17.7 h
CC(C)(O)c1cc(Nc2cc(Oc3cn(C4CC4)nc3C3CCOCC3)ccn2)ccn1 — treatment-emergent adverse events (Cough; advanced cancer patients, dose escalation; oral, dose not given, 3 weeks on/1 off, all causality grade ≥3): 0%
COc1ccc2nc3cc(Cl)ccc3c(Nc3cc(CN4CCCC4)c(O)c(CN4CCCC4)c3)c2n1 — mean corpuscular volume (mouse, blood; intraperitoneal, 14 mg/kg): 44.6 fL
Clc1ccc(-c2cc(Cl)c(Cl)cc2Cl)cc1Cl — milk fat partition ratio (cow whole milk; 50 nM; reference: milk fat over skim milk): 420
